Experimental data from different studies.
Compare with care: the assays were run in different laboratories. Values joined by “and” are separate records of one study, mostly repeats; a detail may differ. ± gives the spread as reported.
PIK3CB: Phosphatidylinositol 4,5-bisphosphate 3-kinase catalytic subunit beta isoform (PIK3CB, Homo sapiens, UniProt P42338)
Sequence of UniProt P42338 (whole entry, looked up): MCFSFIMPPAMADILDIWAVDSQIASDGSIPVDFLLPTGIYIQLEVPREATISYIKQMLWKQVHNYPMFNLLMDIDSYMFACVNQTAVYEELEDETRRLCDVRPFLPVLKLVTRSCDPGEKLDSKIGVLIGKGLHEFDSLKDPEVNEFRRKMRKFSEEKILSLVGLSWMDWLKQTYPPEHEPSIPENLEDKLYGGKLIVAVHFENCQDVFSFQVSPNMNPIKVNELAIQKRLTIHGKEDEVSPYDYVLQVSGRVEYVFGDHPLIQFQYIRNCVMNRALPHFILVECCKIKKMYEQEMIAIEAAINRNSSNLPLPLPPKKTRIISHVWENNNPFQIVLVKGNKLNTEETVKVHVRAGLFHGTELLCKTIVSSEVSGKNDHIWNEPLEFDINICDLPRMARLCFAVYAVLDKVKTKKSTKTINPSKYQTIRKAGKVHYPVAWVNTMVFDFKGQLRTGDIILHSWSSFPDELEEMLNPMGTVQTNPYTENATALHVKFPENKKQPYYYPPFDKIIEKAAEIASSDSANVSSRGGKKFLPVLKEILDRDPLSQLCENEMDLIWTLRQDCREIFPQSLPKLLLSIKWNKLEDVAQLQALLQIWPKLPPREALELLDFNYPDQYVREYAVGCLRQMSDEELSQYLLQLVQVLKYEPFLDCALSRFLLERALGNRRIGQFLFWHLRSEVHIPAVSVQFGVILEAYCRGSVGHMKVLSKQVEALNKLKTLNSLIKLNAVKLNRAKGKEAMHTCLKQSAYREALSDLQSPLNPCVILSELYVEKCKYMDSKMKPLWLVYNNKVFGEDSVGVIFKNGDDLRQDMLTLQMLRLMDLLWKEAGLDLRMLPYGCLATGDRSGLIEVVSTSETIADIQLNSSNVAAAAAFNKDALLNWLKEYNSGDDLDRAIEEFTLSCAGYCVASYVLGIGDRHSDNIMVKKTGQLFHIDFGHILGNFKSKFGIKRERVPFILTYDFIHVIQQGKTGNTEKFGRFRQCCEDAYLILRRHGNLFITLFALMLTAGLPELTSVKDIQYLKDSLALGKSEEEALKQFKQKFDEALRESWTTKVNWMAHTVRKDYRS
HDAC3: Histone deacetylase 3 (HDAC3, Homo sapiens, UniProt O15379)
Sequence of UniProt O15379 (whole entry, looked up): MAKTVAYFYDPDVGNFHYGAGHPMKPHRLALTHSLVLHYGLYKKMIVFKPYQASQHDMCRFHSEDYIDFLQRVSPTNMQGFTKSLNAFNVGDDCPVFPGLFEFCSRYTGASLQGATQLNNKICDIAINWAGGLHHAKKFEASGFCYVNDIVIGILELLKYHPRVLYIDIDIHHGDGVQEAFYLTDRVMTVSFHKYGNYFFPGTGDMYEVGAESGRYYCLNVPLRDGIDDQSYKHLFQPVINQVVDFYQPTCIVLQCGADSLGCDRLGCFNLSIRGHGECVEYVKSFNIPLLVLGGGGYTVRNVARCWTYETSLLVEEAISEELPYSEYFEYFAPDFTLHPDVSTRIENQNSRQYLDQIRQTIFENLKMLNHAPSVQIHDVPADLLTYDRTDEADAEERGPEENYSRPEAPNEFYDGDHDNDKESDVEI
PSMB6: Proteasome subunit beta type-6 (PSMB6, Homo sapiens, UniProt P28072)
Sequence of UniProt P28072 (whole entry, looked up): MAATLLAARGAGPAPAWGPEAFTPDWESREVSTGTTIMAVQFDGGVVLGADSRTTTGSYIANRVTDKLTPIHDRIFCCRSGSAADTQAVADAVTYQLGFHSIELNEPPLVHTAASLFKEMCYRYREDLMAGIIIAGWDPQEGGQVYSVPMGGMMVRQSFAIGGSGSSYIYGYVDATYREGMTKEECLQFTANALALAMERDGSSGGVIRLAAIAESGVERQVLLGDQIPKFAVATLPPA
CDK2 with cyclin A: Cyclin-dependent kinase 2, with cyclin A (CDK2, Homo sapiens, UniProt P24941)
Sequence of UniProt P35346 (whole entry, unmodified, looked up): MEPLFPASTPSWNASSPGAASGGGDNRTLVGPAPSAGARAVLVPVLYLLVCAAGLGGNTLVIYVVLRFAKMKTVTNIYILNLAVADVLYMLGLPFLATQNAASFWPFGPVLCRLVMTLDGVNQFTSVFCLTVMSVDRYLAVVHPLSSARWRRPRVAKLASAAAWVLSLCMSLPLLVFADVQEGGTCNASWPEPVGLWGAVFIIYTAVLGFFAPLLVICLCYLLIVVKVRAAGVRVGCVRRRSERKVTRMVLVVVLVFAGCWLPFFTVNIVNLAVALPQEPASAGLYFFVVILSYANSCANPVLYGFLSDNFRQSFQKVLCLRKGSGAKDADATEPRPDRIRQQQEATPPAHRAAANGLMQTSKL
Sequence of UniProt P49720 (whole entry, looked up): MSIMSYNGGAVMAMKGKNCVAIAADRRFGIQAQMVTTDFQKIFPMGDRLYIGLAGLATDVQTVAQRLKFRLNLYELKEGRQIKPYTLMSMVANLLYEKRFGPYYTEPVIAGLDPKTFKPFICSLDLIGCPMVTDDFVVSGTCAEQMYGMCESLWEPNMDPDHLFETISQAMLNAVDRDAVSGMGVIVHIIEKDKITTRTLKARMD
Sequence of UniProt Q07440 (whole entry, unmodified, looked up): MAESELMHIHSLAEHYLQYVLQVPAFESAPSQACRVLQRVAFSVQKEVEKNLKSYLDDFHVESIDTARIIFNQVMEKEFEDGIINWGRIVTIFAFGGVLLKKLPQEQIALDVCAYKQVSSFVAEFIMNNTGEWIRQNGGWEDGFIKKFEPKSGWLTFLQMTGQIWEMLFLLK
Sequence of UniProt Q7RTX7 (whole entry, looked up): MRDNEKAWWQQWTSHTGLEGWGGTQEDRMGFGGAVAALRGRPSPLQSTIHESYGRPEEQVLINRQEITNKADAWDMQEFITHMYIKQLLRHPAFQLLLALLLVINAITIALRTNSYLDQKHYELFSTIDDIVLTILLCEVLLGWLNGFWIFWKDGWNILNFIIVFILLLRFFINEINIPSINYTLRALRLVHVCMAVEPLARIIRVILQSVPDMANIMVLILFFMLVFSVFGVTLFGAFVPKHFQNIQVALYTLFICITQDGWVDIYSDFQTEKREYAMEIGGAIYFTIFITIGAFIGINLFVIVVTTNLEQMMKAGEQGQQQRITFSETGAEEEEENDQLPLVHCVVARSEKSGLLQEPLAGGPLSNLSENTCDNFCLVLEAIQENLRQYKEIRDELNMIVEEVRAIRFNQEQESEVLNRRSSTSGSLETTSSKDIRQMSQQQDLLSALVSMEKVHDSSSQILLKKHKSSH
Sequence of UniProt P01116 (whole entry, unmodified, looked up): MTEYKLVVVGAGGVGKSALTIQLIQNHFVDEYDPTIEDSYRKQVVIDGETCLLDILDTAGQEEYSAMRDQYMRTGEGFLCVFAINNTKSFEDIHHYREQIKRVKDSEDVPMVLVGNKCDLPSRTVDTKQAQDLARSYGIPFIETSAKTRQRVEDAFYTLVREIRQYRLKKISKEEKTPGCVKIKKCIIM
Sequence of UniProt P05106 (whole entry, looked up): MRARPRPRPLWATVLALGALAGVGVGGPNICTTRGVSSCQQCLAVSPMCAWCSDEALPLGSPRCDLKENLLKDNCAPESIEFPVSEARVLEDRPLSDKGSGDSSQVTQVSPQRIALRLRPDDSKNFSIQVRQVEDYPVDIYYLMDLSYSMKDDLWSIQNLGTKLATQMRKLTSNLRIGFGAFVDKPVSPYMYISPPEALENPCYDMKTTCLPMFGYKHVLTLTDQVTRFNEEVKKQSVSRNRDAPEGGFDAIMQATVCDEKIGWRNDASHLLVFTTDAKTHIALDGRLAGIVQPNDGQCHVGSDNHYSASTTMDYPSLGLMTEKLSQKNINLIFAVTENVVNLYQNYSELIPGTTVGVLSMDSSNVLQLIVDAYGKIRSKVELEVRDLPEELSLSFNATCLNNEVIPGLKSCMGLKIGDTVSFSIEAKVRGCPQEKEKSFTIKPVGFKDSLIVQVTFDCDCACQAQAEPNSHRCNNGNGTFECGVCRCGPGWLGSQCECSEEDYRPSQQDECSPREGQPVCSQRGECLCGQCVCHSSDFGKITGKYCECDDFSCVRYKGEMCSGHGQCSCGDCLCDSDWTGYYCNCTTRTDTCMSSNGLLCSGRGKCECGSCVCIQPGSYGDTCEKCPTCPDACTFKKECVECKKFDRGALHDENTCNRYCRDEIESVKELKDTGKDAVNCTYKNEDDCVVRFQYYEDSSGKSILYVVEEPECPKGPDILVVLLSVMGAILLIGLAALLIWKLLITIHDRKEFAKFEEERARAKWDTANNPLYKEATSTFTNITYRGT
Sequence of UniProt P09874 (whole entry, looked up): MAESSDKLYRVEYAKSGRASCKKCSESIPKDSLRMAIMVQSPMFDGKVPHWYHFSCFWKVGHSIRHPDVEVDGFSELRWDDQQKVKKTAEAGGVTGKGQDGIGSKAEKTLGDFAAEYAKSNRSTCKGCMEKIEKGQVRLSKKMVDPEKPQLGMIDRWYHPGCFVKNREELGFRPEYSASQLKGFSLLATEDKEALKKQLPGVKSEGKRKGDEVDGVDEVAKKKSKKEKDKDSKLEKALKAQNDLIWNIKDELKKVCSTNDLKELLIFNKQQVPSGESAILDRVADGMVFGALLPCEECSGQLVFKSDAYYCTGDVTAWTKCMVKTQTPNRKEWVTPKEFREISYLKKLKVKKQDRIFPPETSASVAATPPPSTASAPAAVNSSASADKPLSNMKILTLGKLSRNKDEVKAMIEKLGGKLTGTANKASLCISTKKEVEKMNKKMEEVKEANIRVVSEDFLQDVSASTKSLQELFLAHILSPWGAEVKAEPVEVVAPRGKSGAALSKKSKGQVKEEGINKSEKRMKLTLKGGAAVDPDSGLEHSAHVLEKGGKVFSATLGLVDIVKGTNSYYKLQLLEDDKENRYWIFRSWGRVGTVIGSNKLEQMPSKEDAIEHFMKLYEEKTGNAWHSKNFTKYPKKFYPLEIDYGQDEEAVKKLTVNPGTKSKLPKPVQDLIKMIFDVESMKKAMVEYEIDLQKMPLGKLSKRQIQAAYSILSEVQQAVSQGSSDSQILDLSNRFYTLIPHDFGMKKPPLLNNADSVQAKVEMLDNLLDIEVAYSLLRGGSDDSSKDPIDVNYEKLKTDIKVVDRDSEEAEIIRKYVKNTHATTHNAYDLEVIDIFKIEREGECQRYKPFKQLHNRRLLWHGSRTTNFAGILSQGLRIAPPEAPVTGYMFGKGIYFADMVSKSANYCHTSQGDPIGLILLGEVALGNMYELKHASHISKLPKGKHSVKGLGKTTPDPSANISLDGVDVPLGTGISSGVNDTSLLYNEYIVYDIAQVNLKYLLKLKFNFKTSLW

Structure (SMILES)	target	test	system	setting	IC50
O=C1Nc2ccccc2C12NC(c1ccc(F)cc1)C1(C(=O)Nc3ccccc31)N2Cc1ccc(F)cc1 (stereo not shown)	PIK3CB	enzyme activity, inhibitor, ADP detection	–	–	173 nM
COc1ccccc1/C=C1\C(=O)N(C)c2ccc(Nc3nc(C)nc4ccccc34)cc21	PIK3CB	enzyme activity, inhibitor, ADP detection	–	–	111 nM
CN(C)CCCn1c(=N)n(CC(O)c2ccc(Br)cc2)c2ccccc21 (stereo not shown)	CatSper channel complex (Homo sapiens, UniProt Q7RTX7+Q86XQ3+Q8NEC5+Q96P56)	calcium influx, inhibitor, FLIPR	human sperm	together with: high pH, high potassium	6300 nM
Fc1ccc(Nc2nc(NC3CCCCC3)c3ccccc3n2)cc1F	ADRB2 (Homo sapiens, UniProt P07550, V152G)	β-arrestin2 recruitment, antagonist, BRET	HEK293	mutant V152G, together with: isoprenaline 1 µM	1000 nM
Cc1cc(C(C)(C)C)ccc1OS(=O)(=O)Oc1cncc(C(=O)NO)c1	HDAC8 (Homo sapiens, UniProt Q9BY41)	enzyme activity, inhibitor, fluorescence	–	–	5000 nM
CC(C)(C)n1ncc2c(=O)n(Cc3cccc(F)c3)c(NCc3ccc(F)cn3)nc21	Cytochrome P450 1A2 (CYP1A2, Homo sapiens, UniProt P05177)	enzyme activity, inhibitor	–	–	15300 nM
Cc1c(COc2cc(OCc3cccc(C#N)c3)c(CNC(C)(CO)CO)cc2Cl)cccc1-c1cccc(OCCCCCC(=O)NO)c1	HDAC3	enzyme activity, inhibitor	–	–	78.1 nM
CCn1nc(Cl)c2c1-c1cnc(N)c(c1)O[C@H](C)c1cc(F)ccc1-c1nn(C)cc1C2	EPHA2 (Homo sapiens, UniProt P29317)	enzyme activity, inhibitor, radiometric	–	–	525 nM
CCN(CC)CCNc1ccc(C)c2sc3ccccc3c(=O)c12	Bcl-2-related protein A1 (Mus musculus, UniProt Q07440, C113S/P104K)	ligand displacement, FP	–	–	300000 nM
C[C@@H](O)[C@@H]1NC(=O)[C@H](CCCCN)NC(=O)[C@@H](Cc2c[nH]c3ccccc23)NC(=O)[C@H](Cc2ccc(NC(N)=O)cc2)NC(=O)[C@H](NC(=O)[C@H](Cc2ccccc2)NC(N)=O)CSSC[C@@H](C(=O)N[C@@H](Cc2ccc3ccccc3c2)C(N)=O)NC1=O	SSTR5 (Homo sapiens, UniProt P35346)	radioligand binding, inhibitor, competitive radioligand displacement	–	cloned receptor	502 nM and 170 nM
O=C(NCC1CCOCC1)c1n[nH]cc1NC(=O)c1c(F)cccc1F	GSK3B (Homo sapiens, UniProt P49841)	target engagement in cells, BRET	–	–	12 nM
O=c1c(-c2ccc(Cl)c(CN3CCOCC3)c2)coc2cc(O)ccc12	HSD3B1 (Homo sapiens, UniProt P14060)	enzyme activity, inhibitor	–	–	1180 nM
COCCN(C)C(C)C(=O)NC(Cc1ccc(-c2ccccc2)cc1)B(O)O (stereo not shown)	Proteasome subunit beta type-10 / Proteasome subunit beta type-3 (Homo sapiens, UniProt P40306+P49720)	β2i activity, inhibitor	–	immunoproteasome, together with: Ac-KQL-AMC	> 10000 nM
CC(C)(C)OC(=O)N1CCN(c2ccc3c(O)c(C(=O)NCc4ccc(C#N)nc4)ncc3n2)CC1	HIF1AN (Homo sapiens, UniProt Q9NWT6)	enzyme activity, inhibitor, HTRF	–	together with: Fe(II) 5 µM	> 10000 nM
CNC(=O)c1ccc(-c2cccc3c2OC(CN)C3)cc1 (stereo not shown)	ADRB1 (Homo sapiens, UniProt P08588)	cAMP level, antagonist, SNAP-tagged EPAC cAMP sensor	HEK cells	together with: isoproterenol 50 nM	25100 nM
Cc1nc(N(C)c2ccc3c(c2)/C(=C/c2ccccc2)C(=O)N3C)c2ccccc2n1	PIK3CB	enzyme activity, inhibitor, ADP detection	–	–	380 nM
Cc1ccc(CN2C(=O)C3(c4ccccc42)C(c2ccc(F)cc2)NC2(C(=O)N(C(=O)CCc4ccccc4)c4ccccc42)N3Cc2ccc(F)cc2)cc1 (stereo not shown)	PIK3CB	enzyme activity, inhibitor, ADP detection	–	–	49.3 nM
CN1CCN(c2ccc(-c3cncc(Cl)c3N3CCC4(CCNC4=O)CC3)cc2)CC1	Cyclin-dependent kinase 8, with cyclin C (CDK8, Homo sapiens, UniProt P49336)	–	–	–	5 nM
CC(C)C[C@H](NC(=O)c1ccccc1)C(=O)N[C@@H](CC(C)C)C(=O)N[C@H](/C=C/S(C)(=O)=O)Cc1ccc(CN)cc1	PSMB6	competitive ABPP	Raji cell lysate	–	> 10000 nM
O=C(Nc1cc(C2CC2)[nH]n1)C1CCC1	CDK2 with cyclin A	radiometric	–	together with: 1 µM ATP	89 nM

Structure (SMILES)	target	test	system	setting	IC50
CCCC(=O)OC1CCC2(C)C(CCC3(C)C2CC=C2C4C(C)C(C)CCC4(C(=O)O)CCC23C)C1(C)C (stereo not shown)	UGT1A10 (Homo sapiens, UniProt Q9HAW8)	enzyme activity, inhibitor	–	–	> 100000 nM
COC1CCC(C[C@H](NC(=O)[C@H](CC(C)C)NC(=O)[C@H](Cc2ccc(CN)cc2)NC(=O)[C@H](Cc2ccccc2)N=[N+]=[N-])C(=O)[C@@]2(C)CO2)CC1 (stereo partly shown)	PSMB6	competitive ABPP	Raji cell lysate	–	> 10000 nM
Cc1cccc(-c2cnn3ccc(Nc4ccc(N5CCOCC5)cc4)nc23)c1	CDK2 with cyclin A	radiometric	–	together with: 1 µM ATP	> 100000 nM
Nc1ncc2c(n1)-c1c([nH]c3ccc(C4=CCOCC4)cc13)CCC2	Non-receptor tyrosine-protein kinase TYK2, JH2 (TYK2, Homo sapiens, UniProt P29597)	target engagement in cells, BRET	–	–	> 10000 nM
NCCCC[C@@H]1NC(=O)CNC(=O)[C@H](N)CSSC[C@H](C(N)=O)NC(=O)[C@@H](CO)NC(=O)[C@@H](CC(=O)O)NC(=O)[C@H](CC(=O)O)NC(=O)CNC1=O	Integrin alpha-V/beta-3 (Homo sapiens, UniProt P05106+P06756)	ligand displacement, flow cytometry	–	–	> 20000 nM
Cc1ccc(C(=O)Nc2ccnc(S(N)(=O)=O)c2)c(N2CCCC(F)(F)CC2)n1	SCN2A (Homo sapiens, UniProt Q99250)	Nav1.2 sodium current, inhibitor, automated patch clamp	–	–	> 33800 nM
CCN(CC)CC(=O)Nc1cccc(-n2cc(-c3ccc4ccc(-c5cn(-c6cccc(NC(=O)CN(CC)CC)c6)nn5)cc4c3)nn2)c1	PIK3CB	enzyme activity, inhibitor	–	–	> 10000 nM
C=CC(=O)N1CCN2c3nc(OC[C@@H]4C[C@@H](F)CN4C)nc4cc(-c5nc(N)cc(C)c5C(F)(F)F)c(Cl)c(c34)OC[C@@H]2C1	GTPase KRas, GDP-bound (KRAS, Homo sapiens, UniProt P01116, G13D)	nucleotide exchange, inhibitor, TR-FRET	–	GDP-bound	630 nM
CN(C)c1ccc(CCC(=O)N2C(=O)C3(NC(c4ccc(F)cc4)C4(C(=O)Nc5ccccc54)N3Cc3ccc(F)cc3)c3ccccc32)cc1 (stereo not shown)	PIK3CB	enzyme activity, inhibitor, ADP detection	–	–	291 nM
CNCc1ccc2c(c1)N(C(=O)OCc1c(F)c(F)c(F)c(F)c1F)[C@H](CNC(=N)N)[C@H]2NC(=O)C(=O)Nc1ccc(Cl)c(F)c1	env (Human immunodeficiency virus 1, UniProt Q75760)	HIV-1 infection	Cf2Th-CD4/CCR5 cells	48 h	770 nM
CCOc1cc(CN2CC3(CC(N4CCC(C(=O)O)CC4)=NO3)C2)cc(OCC)c1-c1ccc(F)cc1	SSTR5 (Homo sapiens, UniProt P35346, W261A)	cAMP level, antagonist, GloSensor	AD293	W261A mutant, bandwidth 6.48, together with: CST17 EC80 and forskolin	2690 nM
CC(C)c1ccccc1[C@@H]1CCCN1C1CC2(CCN(c3ccc(C(=O)NS(=O)(=O)c4ccc(NC[C@H]5CC[C@](C)(O)CC5)c([N+](=O)[O-])c4)c(Oc4cnc5[nH]ccc5c4)c3)CC2)C1	BCL2L2 (Homo sapiens, UniProt Q92843)	binding, TR-FRET competition	–	–	1800 ± 83 nM
CC[C@H](C)[C@@H]1NC(=O)[C@H](Cc2ccccc2C(F)(F)F)NC(=O)CCSCc2cccc(n2)CSCCCNC(=O)[C@H](CCCCCC(=O)NO)NC1=O	HDAC3	enzyme activity, inhibitor, fluorescence	–	–	18 nM
C[C@H](CCC(=O)O)[C@H]1CC[C@H]2[C@@H]3CC[C@@H]4C[C@H](O)CC[C@]4(C)[C@H]3CC[C@]12C	SLC10A1 (Homo sapiens, UniProt Q14973)	–	–	–	34100 nM
Cc1c(COc2cc(OCc3cccc(C#N)c3)c(CNC(CO)CO)cc2Cl)cccc1-c1cccc(OCCCCCCC(=O)NO)c1	HDAC3	enzyme activity, inhibitor	–	–	69.7 nM
COc1cc(-n2cc3cccc(C(N)=O)c3n2)cc(C)c1C1CCCC(O)(CCO)C1 (stereo not shown)	PARP1 (Homo sapiens, UniProt P09874)	enzyme activity, inhibitor, radiometric	–	–	0.55 nM
Cc1nn(-c2cccc(N)c2)c(=O)c2cnc(Nc3ccc(N4CCNCC4)cc3)nc12	CDC42BPA (Homo sapiens, UniProt Q5VT25)	enzyme activity, inhibitor	–	–	> 10000 nM
O=C1Nc2ccccc2C12NC(c1ccc(Cl)c(Cl)c1)C1(C(=O)Nc3ccccc31)N2Cc1ccc(Cl)c(Cl)c1 (stereo not shown)	PIK3CB	enzyme activity, inhibitor, ADP detection	–	–	304 nM
ClC1C[N+]2=Cc3ccc4[n]3[Au-]23[n]2c(ccc2-c2nc5ccccc5nc2-4)C=[N+]3C1.F[P-](F)(F)(F)(F)F	DNA topoisomerase 1 (TOP1, Homo sapiens, UniProt P11387)	enzyme activity, inhibitor	–	–	8800 nM
C=CCn1c(NN)nc2cc3ccccc3cc2c1=O	Genome polyprotein, protease (Hepatitis C virus genotype 1b, UniProt O92972)	enzyme activity, inhibitor, FRET	–	–	15800 nM

Some of these lines once more:
Structure (SMILES)	target	test	system	setting	IC50
Cc1nc(N(C)c2ccc3c(c2)/C(=C/c2ccccc2)C(=O)N3C)c2ccccc2n1	PIK3CB	enzyme activity, inhibitor, ADP detection	–	–	380 nM
Cc1ccc(CN2C(=O)C3(c4ccccc42)C(c2ccc(F)cc2)NC2(C(=O)N(C(=O)CCc4ccccc4)c4ccccc42)N3Cc2ccc(F)cc2)cc1 (stereo not shown)	PIK3CB	enzyme activity, inhibitor, ADP detection	–	–	49.3 nM
CN1CCN(c2ccc(-c3cncc(Cl)c3N3CCC4(CCNC4=O)CC3)cc2)CC1	Cyclin-dependent kinase 8, with cyclin C (CDK8, Homo sapiens, UniProt P49336)	–	–	–	5 nM
CC(C)C[C@H](NC(=O)c1ccccc1)C(=O)N[C@@H](CC(C)C)C(=O)N[C@H](/C=C/S(C)(=O)=O)Cc1ccc(CN)cc1	PSMB6	competitive ABPP	Raji cell lysate	–	> 10000 nM
O=C(Nc1cc(C2CC2)[nH]n1)C1CCC1	CDK2 with cyclin A	radiometric	–	together with: 1 µM ATP	89 nM
